Assay results pooled from the literature.
A part holds a random share of what one study measured. Positions count from the first letter of the parent shown.

Set 1
Target: CRIPT, C-terminal peptide
Method: DHFR complementation, deep sequencing
Sample: yeast
Setting: single substitutions, model-inferred values
Reference: wild type
Reading: higher = weaker binding
Starting sequence: ERBIN, PDZ domain 1 (human); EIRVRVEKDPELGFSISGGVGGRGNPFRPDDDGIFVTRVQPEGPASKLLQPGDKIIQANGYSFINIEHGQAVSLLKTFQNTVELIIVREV; partner TKNYKQTSV
Substitution | binding free energy change [kcal/mol]
D30W | 0.293
G13I | 1.19
G52F | 0.88
H68S | 1.33
Q40V | 0.196
K47V | 0.189
P51C | 0.218
F78A | -0.0568
K47Q | 0.0257
E83K | 0.269
Y61F | 0.0382
V39Y | 0.756
P44A | 0.239
I85W | -0.000714
S15Q | 1.05
G21K | 0.227
P44T | 0.729
S62V | 0.109
E83R | 0.242
I64G | 0.0141
E83P | 0.309
G60I | 0.333
K47T | 0.0737
K54E | 0.0714
E67A | 0.0549

Set 2
Target: Interferon regulatory factor 3, full length, phosphomimetic (IRF3, Homo sapiens, UniProt Q14653, residues 1-427, S386D/S396D/S398D/S402D/T404D/S405D)
Method: protein-binding microarray
Form: double-stranded DNA, one strand shown
Sample: in vitro
Concentration: 2540 nM top
Setting: 60-bp whole probe
With: salmon DNA 0.4 mg/ml
Reference: random background probes
Reading: higher = stronger binding
All sequences stand within: GCCTAGCAC … GTCTTGATTCGCTTGACGCTGCTG
Target sequence (chain): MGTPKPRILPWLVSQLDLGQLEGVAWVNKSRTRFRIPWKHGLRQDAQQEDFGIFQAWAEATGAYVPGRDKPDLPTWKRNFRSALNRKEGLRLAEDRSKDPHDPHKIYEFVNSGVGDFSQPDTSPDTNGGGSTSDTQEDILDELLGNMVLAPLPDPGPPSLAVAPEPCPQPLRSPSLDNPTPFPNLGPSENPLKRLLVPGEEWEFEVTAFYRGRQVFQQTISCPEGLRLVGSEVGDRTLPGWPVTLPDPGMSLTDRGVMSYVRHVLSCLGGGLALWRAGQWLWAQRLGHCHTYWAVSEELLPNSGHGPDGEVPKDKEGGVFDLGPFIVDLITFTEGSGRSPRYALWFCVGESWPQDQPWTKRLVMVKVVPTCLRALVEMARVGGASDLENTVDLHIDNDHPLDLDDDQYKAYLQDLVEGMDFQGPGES
Sequence | fitted relative affinity [z-score]
TTAGGACTAGACTTTCGGTTAGTGCTA | 1.26
GAGGGTTCCGGTTTCGGGACGTGCTAG | 5.75
TTTGGTTTCGGGACTGGGTTAGTGCTA | 5.12
TTAGATTTCAGTTTCGCTTAGTGCTAG | 5.42
GACAGTATCGGGTATCGGGACGTGCTA | 1.96
GAATGTAACTCCTATCCAAGTGTGCTA | 0.367
TAGAAATTTTTTTTCTAACTGTGCTAG | 0.035
TTAGATTTCGTGACTGGATTAGTGCTA | 0.322
GACGGACTGCTTATCCTGTCGTGCTAG | 0.0795
CTTTTATTAGTGACTCAGCACGTGCTA | 2.97
TTAGAACTGAGACTCGATTAGTGCTAG | -0.464
CTTGGCAAGATGAGGAAGATGTGCTAG | -0.832
TTAGATATCAGATTCGATTAGTGCTAG | 2.74
TTAGATTTCGGGTACCGATTAGTGCTA | 2.13
GACGGTTTCCTCTTCCTGACGTGCTAG | 5.29
GACGATATGGGGTTTCGAGACGTGCTA | 0.532
GACGGTTTCGACACTGGGGTCGTGCTA | 3.3
GACGGTCTCGGTTTCGGGAAGTGCTAG | 3.65
TTAGAATTCAGTTCCGATTAGTGCTAG | 2.44
TAAGAACTGGGGTTTCGATTAGTGCTA | 1.27
TTACATTTATATCTTTGCTTGTGCTAG | 0.725
GTGGGAAACCGGAAAGGCAAAGTGCTA | 1.1
CTGCTCCTCTTTTTTTGGTAGTGCTAG | 0.917
GACGGACTGCTAATGCTGACGTGCTAG | -0.681
GACGGCTTCGACTTTCGGGACGTGCTA | -0.166

Set 3
Target: Histone acetyltransferase KAT6A, winged helix 2, GST fusion (KAT6A, Homo sapiens, UniProt Q92794, residues 85-181)
Method: protein binding microarray
Form: double-stranded DNA, one strand shown
Sample: in vitro
Concentration: not given
Setting: 8-mer, flanks averaged, mean of 2 arrays, mostly near background
Reference: not given
Reading: higher = stronger binding
Target sequence (chain): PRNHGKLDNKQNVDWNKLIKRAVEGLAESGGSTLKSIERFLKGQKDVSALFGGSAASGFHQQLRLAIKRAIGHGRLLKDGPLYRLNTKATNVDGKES
Sequence | E-score
AGGTACTG | 0.046
GGCATCAC | -0.0224
GCAAATCC | 0.0934
CAAGCGCG | 0.115
AATTGTAC | -0.013
CACCTTGC | 0.0261
GTCCGCGA | 0.0546
AGCATCGC | 0.0804
GTAGGGAC | -0.136
GAGGCACC | -0.077
AGGTTTTG | 0.0623
ACTGTGAA | -0.00138
CGCCCGTC | 0.176
CGCTGCCA | 0.0744
ATGTGCGG | 0.025
CCGGACAG | 0.0979
ACTTCCGC | 0.0286
AACGCTAG | -0.0539
ATGTGTTA | -0.0888
ACGTTGCG | -0.181
ACAGAGCA | 0.115
CTTTTCGA | 0.137
ATATCCCC | -0.0487
AGCCAGCT | 0.0403
TCAGCTCA | 0.0563

Set 4
Target: CCNE2, cyclin fold, Cln2 fusion (human)
Method: yeast growth competition, sequencing
Sample: yeast
Setting: strong parent motif
Reference: not given
Reading: higher = stronger binding
Starting sequence: E2F1 docking peptide (human); PPVKRRLDLETDH
Substitution | normalised enrichment score
H13K | 2.01
V3C | 2
P1C | 1.42
P2T | 1.09
R5S | 0.0734
K4N | -0.257
H13I | 1.38
P2S | 1.48
E10I | 1.19
L7V | -0.176
T11F | 2.44
D12K | 2.12
K4Q | 0.53
V3T | 0.621
H13A | 0.894
E10R | 1.37
P2D | 0.828
D8C | 1.56
R6V | 0.568
P2Q | 0.746
L7T | 0.393

Set 5
Target: ABI1, truncated, D143A, DHFR fusion (Arabidopsis thaliana, UniProt P49597)
Method: DHFR PCA, dose-response
Sample: yeast
Setting: Hill fit, mean, not affinity
With: (+)-ABA, dose series
Reading: lower = more sensitive
Starting sequence: PYL1, truncated, DHFR fusion (Arabidopsis thaliana, UniProt Q8VZS8); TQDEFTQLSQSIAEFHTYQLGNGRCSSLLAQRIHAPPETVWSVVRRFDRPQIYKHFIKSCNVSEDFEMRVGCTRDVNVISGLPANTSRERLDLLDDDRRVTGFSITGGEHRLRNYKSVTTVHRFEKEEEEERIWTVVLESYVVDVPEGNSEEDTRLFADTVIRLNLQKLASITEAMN
Substitution | ABA EC50 [µM]
T106G | 242
Q7D | 2.16
N77R | 1.75
G23K | 3.41
S42T | 4.9
A175W | 5.98
L28W | 25.1
R155L | 13.1
R163Y | 74.7
E14S | 9.05
Y53S | 194
P146A | 23.3
R99N | 14.9
Q19G | 4.45
T135S | 2.51
R113C | 5.4
I79W | 5.09
V142F | 41.5

Set 6
Target: BATF3, bZIP domain (human)
Method: DHFR protein complementation
Sample: yeast
Setting: single substitutions, most at no-binding floor
Reference: wild-type JUN-FOS pair
Reading: higher = stronger binding
Starting sequence: JUN, bZIP domain (human); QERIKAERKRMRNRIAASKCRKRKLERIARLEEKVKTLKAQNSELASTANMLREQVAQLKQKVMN; partner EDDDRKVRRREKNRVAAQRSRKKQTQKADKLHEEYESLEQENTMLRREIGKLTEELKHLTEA
Substitution | binding fitness [natural log]
V56R | -0.0794
A49Y | 0.209
E44R | 0.161
A49Q | 0.037
R53V | -0.00141
A40V | 0.298
R30G | 0.331
E54A | 0.124
E33N | 0.117
L38H | -0.212
E54K | 0.131
I28C | 0.156
K34A | 0.268
Q41V | 0.167
L38Y | -0.112
L45K | -0.409
T37Y | 0.265
Q41M | 0.167
L38G | -0.0276
A46T | 0.262
Q55F | -0.0591
E44A | 0.148
T37V | 0.209
E44C | 0.117
L52Y | -0.0554

Single results of other studies
Molecule | target | assay | test system | setting | how to read | endpoint | value
PhoQ, residues 284 288 289 292 302 303 TSTLRA | PhoP, residues 12 14 15 18 19 NMSFL (Escherichia coli, UniProt P23836) | Sort-seq, refers to: YFP reporter | E. coli | PhoQ-PhoP variant library, with: 10 µM Mg2+ | reference: high Mg2+ state, higher = stronger signaling | fold induction | 7.75

Some of these lines once more (set 1):
Substitution | binding free energy change [kcal/mol]
K54E | 0.0714
S15Q | 1.05
G52F | 0.88
K47V | 0.189
V39Y | 0.756
P51C | 0.218
Y61F | 0.0382
P44T | 0.729
G60I | 0.333
H68S | 1.33
E83R | 0.242
D30W | 0.293
I64G | 0.0141
K47T | 0.0737
Q40V | 0.196
E83K | 0.269
S62V | 0.109
E67A | 0.0549
K47Q | 0.0257
G13I | 1.19
G21K | 0.227
